Published values pooled from the literature.
Protocols differ between the studies behind these lines. Numbers after ± are the reported error.
rep papain-like protease: Replicase polyprotein 1ab, papain-like protease (rep, Severe acute respiratory syndrome coronavirus 2, UniProt P0DTD1)
rep main protease: Replicase polyprotein 1ab, main protease (rep, Severe acute respiratory syndrome coronavirus 2, UniProt P0DTD1)
OPRD1: Delta-type opioid receptor (OPRD1, Homo sapiens, UniProt P41143)
Sequence of UniProt P41143 (whole entry, looked up): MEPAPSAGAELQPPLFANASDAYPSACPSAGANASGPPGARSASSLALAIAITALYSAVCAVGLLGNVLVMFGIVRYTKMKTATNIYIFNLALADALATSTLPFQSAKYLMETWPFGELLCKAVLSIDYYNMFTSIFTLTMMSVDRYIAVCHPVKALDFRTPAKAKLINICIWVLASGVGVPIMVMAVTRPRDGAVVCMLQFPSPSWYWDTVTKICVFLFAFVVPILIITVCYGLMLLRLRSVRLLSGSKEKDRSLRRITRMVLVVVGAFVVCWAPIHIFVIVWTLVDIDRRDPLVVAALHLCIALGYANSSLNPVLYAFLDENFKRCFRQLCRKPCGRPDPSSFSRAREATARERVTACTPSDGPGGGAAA

`Cc1ccccc1[C@@H](C)N(C)Cc1cc(O)ccc1Cl` has a Ki of 2.1 µM (rep papain-like protease; enzyme activity, inhibitor, FRET).
The Ki of `C=C1CC[C@@H]2[C@](C)(COC(C)=O)[C@H](OC(C)=O)CC[C@@]2(C)[C@@H]1C[C@H](SC(=S)N1CCN(C(c2ccc(F)cc2)c2ccc(F)cc2)CC1)C1=CCOC1=O` is reported as 8.3 µM (rep main protease; enzyme activity, inhibitor, fluorescence).
For `Cc1ccc(OCCN(C)C)cc1C(=O)N[C@H](C)c1cc(-c2cnn(C)c2)cc(-c2cnn(C3CC3)c2)c1`, the Ki was 0.0332 µM (rep papain-like protease; enzyme activity, inhibitor, FRET).
With `O=S(=O)(O)c1cccc2cccc(Nc3ccccc3)c12` the Ki was 188 µM (rep main protease; enzyme activity, inhibitor).
With `COc1ccc(-c2cc(=O)c3c(O)c(Oc4ccc(-c5cc(=O)c6c(O)cc(O)cc6o5)cc4)c(OC)cc3o2)cc1` the Ki was 14.3 µM (rep papain-like protease; enzyme activity, inhibitor).
With `CC(=O)Nc1ccc(-c2cnc(N3C(=O)CSC3c3cc4ccccc4nc3Cl)s2)cc1` (stereo not drawn) the Ki was 8.75 ± 0.87 µM (rep papain-like protease; papain-like protease activity, inhibitor; SARS-CoV-2; 15 min, 37 °C, added: substrate 40 µM).
`Cc1ccc(CNC(=O)c2ccc(F)c(F)c2)cc1C(=O)N[C@H](C)c1cccc2ccccc12` gave a Ki of 5.4 µM (rep papain-like protease; enzyme activity, inhibitor).
For `CC(C)C[C@H](NC(=O)[C@H](CO[C@@H]1O[C@H](CO)[C@@H](O)[C@H](O)[C@H]1O)NC(=O)[C@H](CCCCN)NC(=O)[C@H](CC(C)C)NC(=O)[C@H](C)NC(=O)[C@H](CCCCN)NC(=O)[C@H](CCC(=O)O)NC(=O)C(C)(C)NC(=O)[C@H](CC(C)C)NC(=O)[C@H](CC(N)=O)NC(=O)[C@@H]1CCCN1C(=O)[C@H](CC(C)C)NC(=O)[C@H](Cc1ccccc1)NC(=O)CNC(=O)[C@H](NC(=O)[C@@H](N)Cc1ccc(O)cc1)[C@H](C)O)C(N)=O`, the Ki was 0.014 µM (OPRD1; ligand displacement, radioligand; pH 7.5, cell membranes).
`Cc1ccc(OCCN(C)C)cc1C(=O)N[C@H](C)c1cc(-c2cnn(C)c2)cc(-c2cnn(CC(F)(F)F)c2)c1` has a Ki of 0.0398 µM (rep papain-like protease; enzyme activity, inhibitor, FRET).
With `C=C1CC[C@@H]2[C@](C)(COC(C)=O)[C@H](OC(C)=O)CC[C@@]2(C)[C@@H]1C[C@H](SC(=S)N1CCc2ccccc2C1c1ccccc1)C1=CCOC1=O` (stereo partly drawn) the Ki was 5 µM (rep main protease; enzyme activity, inhibitor, fluorescence).
For `O=C(Oc1cncc(Cl)c1)c1ccco1`, the Ki was 0.56 µM (rep main protease; enzyme activity, inhibitor).
Under “serum enzyme activity”, `CCCCCCCCCCCCCCCC(=O)N[C@@H](CCC(=O)NCCOCCOCCC(=O)NCCOCCOCCC(=O)NCCCC[C@H](NC(=O)[C@H](CC(=O)O)NC(=O)[C@H](CC(C)C)NC(=O)[C@H](Cc1ccc(O)cc1)NC(=O)[C@H](CCCCN)NC(=O)[C@H](CO)NC(=O)[C@H](Cc1ccc(O)cc1)NC(=O)[C@H](CC(=O)O)NC(=O)[C@H](CO)NC(=O)[C@@H](NC(=O)[C@H](Cc1ccccc1)NC(=O)[C@@H](NC(=O)CNC(=O)[C@H](CCC(N)=O)NC(=O)[C@@H](CO)NC(=O)[C@@H](N)Cc1c[nH]cn1)[C@@H](C)O)[C@@H](C)O)C(=O)N[C@@H](CCCNC(=N)N)C(=O)N[C@@H](CCCNC(=N)N)C(=O)N[C@@H](C)C(=O)N[C@@H](CCC(N)=O)C(=O)N[C@@H](CC(=O)O)C(=O)N[C@@H](Cc1ccccc1)C(=O)N[C@H](C(=O)N[C@@H](CCC(N)=O)C(=O)N[C@@H](Cc1c[nH]c2ccccc12)C(=O)N[C@@H](CC(C)C)C(=O)N[C@@H](CC(C)C)C(=O)N[C@@H](CC(N)=O)C(=O)N[C@H](C(=O)NCC(=O)NCC(=O)N1CCC[C@H]1C(=O)N[C@@H](CO)C(=O)N[C@@H](CO)C(=O)NCC(=O)N[C@@H](C)C(=O)N1CCC[C@H]1C(=O)N1CCC[C@H]1C(=O)N1CCC[C@H]1C(=O)N[C@@H](CO)C(N)=O)[C@@H](C)O)C(C)C)C(=O)O` is recorded as 192 ± 37.4 U/L (refers to: ALP; rhesus monkey, female; subcutaneous, 300 µg/kg once daily, 28 days).
The Ki of `Cc1ccc(OCCN(C)C)cc1C(=O)N[C@H](C)c1cc(-c2cnn(C)c2)cc(-c2cnn(C(F)F)c2)c1` is reported as 0.0336 µM (rep papain-like protease; enzyme activity, inhibitor, FRET).
For `CC(C)C[C@H](NC(=O)[C@H](CO[C@@H]1O[C@H](CO)[C@@H](O)[C@H](O)[C@H]1O)NC(=O)[C@H](CCCCN)NC(=O)[C@H](CC(C)C)NC(=O)[C@H](C)NC(=O)[C@H](CCCCN)NC(=O)[C@H](CCC(=O)O)NC(=O)[C@H](C)NC(=O)[C@H](CC(C)C)NC(=O)[C@H](CC(N)=O)NC(=O)[C@@H]1CCCN1C(=O)[C@H](CC(C)C)NC(=O)[C@H](Cc1ccccc1)NC(=O)CNC(=O)[C@H](NC(=O)[C@@H](N)Cc1ccc(O)cc1)[C@H](C)O)C(N)=O`, the Ki was 0.0079 µM (OPRD1; ligand displacement, radioligand; pH 7.5, cell membranes).
`COc1ccc(-c2cc(=O)c3c(O)cc(O)cc3o2)cc1Oc1ccc(-c2cc(=O)c3c(O)cc(O)cc3o2)cc1` has a Ki of 19.7 µM (rep papain-like protease; enzyme activity, inhibitor).

Excerpt of the above:
For `Cc1ccc(OCCN(C)C)cc1C(=O)N[C@H](C)c1cc(-c2cnn(C)c2)cc(-c2cnn(C3CC3)c2)c1`, the Ki was 0.0332 µM (rep papain-like protease; enzyme activity, inhibitor, FRET).
